Assay results from different studies.
Each numbered part is a random draw from the data of one study; scales do not carry over between parts.

Study 1 — technique: aptamer microarray, sandwich; molecule type: DNA with 2'F-ANA; sample: in vitro; tested at: 200 nM; with: Cy3 exosite-II aptamer, 400 nM; reading: higher = stronger binding; strand: GGTTGGTGTGGTTGG
Target: Prothrombin, mature alpha-thrombin (F2, Homo sapiens, UniProt P00734)
Setting: whole 15-mer aptamer, many near background
| Modification | mean fluorescence intensity [a.u.] |
| --- | --- |
| 2'F-ANA at 1 2 7 9 10 11 15 | 175 |
| 2'F-ANA at 1 4 5 6 7 8 10 14 | 51 |
| 2'F-ANA at 2 6 7 10 12 | 162 |
| 2'F-ANA at 2 3 4 8 9 11 12 14 | 302 |
| 2'F-ANA at 3 4 5 6 7 9 14 15 | 49.2 |
| 2'F-ANA at 1 2 3 4 6 8 10 14 15 | 49.1 |
| 2'F-ANA at 1 2 3 4 5 6 8 11 13 14 | 48.2 |
| 2'F-ANA at 3 6 7 8 11 13 15 | 884 |
| 2'F-ANA at 2 3 5 8 10 11 15 | 54.7 |
| 2'F-ANA at 1 2 4 5 6 9 10 11 12 13 14 15 | 53.5 |
| 2'F-ANA at 1 3 5 6 8 9 10 12 14 15 | 46 |
| 2'F-ANA at 3 4 7 11 12 14 | 473 |
| 2'F-ANA at 1 6 7 9 11 12 14 15 | 62.7 |
| 2'F-ANA at 1 2 3 5 10 14 | 47.6 |
| 2'F-ANA at 1 4 5 9 10 11 14 15 | 44.3 |
| 2'F-ANA at 5 6 7 8 10 12 | 49.7 |
| 2'F-ANA at 7 8 9 12 | 923 |
| 2'F-ANA at 2 4 6 8 9 10 11 13 14 15 | 58.4 |
| 2'F-ANA at 1 2 3 5 7 9 10 11 12 13 | 66.3 |
| 2'F-ANA at 6 7 9 10 11 13 14 | 97.8 |
| 2'F-ANA at 1 2 3 6 7 8 12 13 | 438 |
| 2'F-ANA at 1 2 3 4 5 7 8 10 11 15 | 259 |
| 2'F-ANA at 2 4 6 8 12 13 15 | 362 |
| 2'F-ANA at 1 6 8 9 12 13 14 | 75.9 |
| 2'F-ANA at 2 3 5 6 7 11 14 | 49.3 |

Study 2 — technique: RNA Bind-n-Seq; molecule type: RNA; sample: in vitro; tested at: 200 nM; setting: whole 134-nt RNA, ends assumed; with: 150 mM LiCl; baseline: input library; reading: higher = stronger binding; library: 7-deaza-guanosine replaces G
Target: Ras GTPase-activating protein-binding protein 1, full length (G3BP1, Homo sapiens, UniProt Q13283)
Chain of UniProt Q13283 (whole entry, looked up): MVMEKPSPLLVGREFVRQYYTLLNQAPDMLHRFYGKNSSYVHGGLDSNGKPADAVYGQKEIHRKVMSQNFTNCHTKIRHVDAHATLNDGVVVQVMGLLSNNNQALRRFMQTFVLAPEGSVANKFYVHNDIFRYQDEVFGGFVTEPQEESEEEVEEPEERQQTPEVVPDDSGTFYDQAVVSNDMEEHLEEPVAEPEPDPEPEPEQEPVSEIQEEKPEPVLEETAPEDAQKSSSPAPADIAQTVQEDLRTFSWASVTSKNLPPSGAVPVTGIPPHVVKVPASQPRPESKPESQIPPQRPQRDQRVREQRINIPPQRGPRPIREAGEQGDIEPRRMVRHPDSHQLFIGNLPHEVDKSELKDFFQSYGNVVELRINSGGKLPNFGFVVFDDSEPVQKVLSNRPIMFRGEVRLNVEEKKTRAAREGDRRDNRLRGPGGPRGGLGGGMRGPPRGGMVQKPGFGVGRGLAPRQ
Constant ends, left off below: GGGAGUUCUACAGUCCGACGAUC … UGGAAUUCUCGGGUGUCAAGG
| Strand | log2 enrichment |
| --- | --- |
| CUCAAGUCCUGUGCUACACAUCGUAUGUACCGAAUCGGGGUUGGUUGGGUUGGAAAGUAUUAUGUUACGCCGUUCGGAUCUGCACUUCCA | -0.188 |
| UCCUGUGCUACACAUCGUAUGUACCGAAUCGGGGUGGGGUUUUUUUGGGGUUUUUGGGGAAAGUAUUAUGUUACGCCGUUCGGAUCUGCA | 0.498 |
| AAGUCCUGUGCUACACAUCGUAUGUACCGAAUCGGGCCCCGGGGCCCCGGCCCCGGAAAGUAUUAUGUUACGCCGUUCGGAUCUGCACUU | -0.92 |
| CUCAAGUCCUGUGCUACACAUCGUAUGUACCGAAUCGGAGGAAAAAAAGGUGGAAAGUAUUAUGUUACGCCGUUCGGAUCUGCACUUCCA | -1.49 |
| AGUCCUGUGCUACACAUCGUAUGUACCGAAUCGGGAAAGGGAAAAAGGGAAAAAGGGAAAGUAUUAUGUUACGCCGUUCGGAUCUGCACU | -0.453 |
| UCCUGUGCUACACAUCGUAUGUACCGAAUCGGGGUUUUUUGGUUUUUUGGGUUUUUUGGAAAGUAUUAUGUUACGCCGUUCGGAUCUGCA | 0.266 |
| ACCAUGCAGGUGGGCAUCUUUGGGAAGUGGGACAAGGGGGGGAUAGGGAGGGGGGUAACACUUUGGGAACAGGUGGUCCCAGGUCGUUUC | 0.562 |
| ACCAUGCAGGUGGGCAUUUUUGGGAAGUGGGGCAAGGGGGGGAUAGGGAGGGGGGUAACACUUUGGGAACAGGUGGUCCCAGGUCGUUUC | 0.2 |
| CUGUGCUACACAUCGUAUGUACCGAAUCGGGGAAAAAAAGGGGAAAGGGGAAAAAAAGGGGAAAGUAUUAUGUUACGCCGUUCGGAUCUG | 0.602 |
| CAAGUCCUGUGCUACACAUCGUAUGUACCGAAUCGGGAAAAAGGGAAAGGGAGGGAAAGUAUUAUGUUACGCCGUUCGGAUCUGCACUUC | -0.112 |
| UCCUGUGCUACACAUCGUAUGUACCGAAUCGGGUUUUUUUGGGUUUGGGUUUUUUUGGGAAAGUAUUAUGUUACGCCGUUCGGAUCUGCA | 0.334 |

Study 3 — technique: universal PBM; molecule type: double-stranded DNA, one strand shown; sample: in vitro; tested at: not given; reading: higher = stronger binding
Target: Sal-like protein 4, full length isoform B (SALL4, Homo sapiens, UniProt Q9UJQ4-2, residues 1-616)
Setting: 8-mer, flanks averaged, mean of replicates
| Strand | E-score |
| --- | --- |
| CCCATGCA | 0.101 |
| GTCTAAAC | 0.0215 |
| AGTAGATC | 0.0568 |
| AACCGACC | -0.254 |
| ATCCTCAC | -0.0301 |
| CCTCCCCG | -0.274 |
| CTTCCCAA | -0.123 |
| GCAAGGTA | 0.0607 |
| ACGTCGGG | -0.264 |
| GCAGGACA | -0.148 |
| CGCCAGCG | -0.243 |
| CTGTTAAA | 0.154 |
| CCCACGCG | -0.225 |
| GAGACATC | -0.138 |
| CCATATTC | 0.201 |
| AGACAGTC | -0.257 |
| GGGTATCA | 0.05 |
| ATACGCTC | 0.157 |
| ATGCATCC | -0.158 |
| CCCAACTA | 0.0618 |
| AGTGCTTG | 0.0816 |
| ACCATTTG | 0.138 |
| ATTACCCG | 0.105 |
| CGGTCGAG | -0.271 |
| AACTACCG | -0.124 |

Study 4 — technique: protein-binding microarray; molecule type: double-stranded DNA, one strand shown; sample: in vitro; tested at: 0.8 µM; setting: whole 60-bp probe, no competitor; reading: higher = stronger binding; constant ends, left off below: … GTCTTGATTCGCTTGACGCTGCTG
Target: Centromere-binding protein 1, full length, N-terminal tag (CBF1, Saccharomyces cerevisiae, UniProt P17106, residues 1-351)
Chain of UniProt P17106 (whole entry, looked up): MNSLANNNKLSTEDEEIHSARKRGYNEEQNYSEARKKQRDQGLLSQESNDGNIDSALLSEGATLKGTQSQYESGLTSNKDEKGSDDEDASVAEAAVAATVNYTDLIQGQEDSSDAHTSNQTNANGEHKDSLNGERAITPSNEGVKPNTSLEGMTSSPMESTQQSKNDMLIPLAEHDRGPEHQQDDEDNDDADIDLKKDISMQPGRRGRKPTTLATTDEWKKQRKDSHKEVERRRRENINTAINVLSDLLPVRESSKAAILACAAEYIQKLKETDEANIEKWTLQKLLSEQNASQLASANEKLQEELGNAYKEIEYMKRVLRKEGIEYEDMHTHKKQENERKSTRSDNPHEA
| Strand | fluorescence intensity [a.u.] |
| --- | --- |
| CTAAACAGGCATATACACACGCACTCTCTTTTTTTC | 533 |
| GAAGGCACGGCTACCCACGCGCACAAAAGTAAATAG | 560 |
| CTAAGGCCATATTATCACGTAACAAACCTAATTTTC | 553 |
| GAAACTTCTTGCAGACATCAGACATACTATTGTTAG | 522 |
| CCTAACTACTATATGCACGTGGTATAGCTTCGTACA | 5830 |
| GAACCACCATTGAACGTGATTATGACTTCCAATTAG | 847 |
| CCTAACTACTATATACACGTGTTATAGCTTCGTACA | 6650 |
| GAAAATGGAAAACATGTGATTCTTATACTAAGCTAG | 2600 |
| GAATGTATAATTGGTGGTGTAACGTGGATTAAATAG | 681 |
| GAAAGAAGAATTGGACATCAGAATACTTTTCTCTAG | 516 |
| CTATTCATTCTGTGAAATATCACGTGGACAAATTTC | 16900 |
| CTAAAAATAATCTCTCACGTTATACGCAATAAATTC | 843 |
| CTAAATGAAGTCTTGCGCACGCAATTGGTTGTATTC | 533 |
| CTACCAAATTCCCATCTGATGAACTGTTAGTTGTTC | 507 |
| CTATGAATGATATAACACGTTAAAGTTTCTAGATTC | 519 |
| GAATTCTTGCATTTTCGCGTGATATCAAAATTATAG | 970 |
| GAATTAGGTCATGGTCACATCTTATTATATAAATAG | 666 |
| GAAATGCTTATACGTGATTTGTTATATAAGGGATAG | 821 |
| CCTAACTACTATAATCAGGAGGCATAGCTTCGTACA | 524 |
| CTATAATAAAAACAGCATCAGAGCTTTCCACGTTTC | 458 |
| CTATTCGTGGATGGTCATGCGTATTTAAGAATATTC | 766 |
| CTATTTAGATGGGTCCATGTGAAAGCTCAAAGGTTC | 555 |
| GAAAAAAAGTTTAATCACGTTCCCGCTTCTTTTTAG | 1500 |
| GAATCAATTGATTACCACATGCAACCCCATTGATAG | 690 |
| GAATCATACTTAATACACGTTTTTTAAGATTTATAG | 546 |

A few entries again (study 4):
| Strand | fluorescence intensity [a.u.] |
| --- | --- |
| GAAACTTCTTGCAGACATCAGACATACTATTGTTAG | 522 |
| CCTAACTACTATAATCAGGAGGCATAGCTTCGTACA | 524 |
| GAATTCTTGCATTTTCGCGTGATATCAAAATTATAG | 970 |
| CTATGAATGATATAACACGTTAAAGTTTCTAGATTC | 519 |
| GAAAATGGAAAACATGTGATTCTTATACTAAGCTAG | 2600 |
| GAAGGCACGGCTACCCACGCGCACAAAAGTAAATAG | 560 |
| CCTAACTACTATATACACGTGTTATAGCTTCGTACA | 6650 |
| GAAAAAAAGTTTAATCACGTTCCCGCTTCTTTTTAG | 1500 |
| CTACCAAATTCCCATCTGATGAACTGTTAGTTGTTC | 507 |
| GAATCAATTGATTACCACATGCAACCCCATTGATAG | 690 |
